Published values of several laboratories.
Each numbered part is a random draw from the data of one study; scales do not carry over between parts. “And” joins repeats or separate records; there may be more than shown.

Series 1
Compound: COc1ccc2[nH]c3c4[nH]c5ccc(OC)cc5c4c4c(c3c2c1)C(=O)NC4=O
Read-out: binding
Tested at: 1 µM
target | technique | remaining binding [%]
DDR1 (Homo sapiens, UniProt Q08345) | competition with immobilised ligand | 77
TNNI3K (Homo sapiens, UniProt Q59H18) | competition with immobilised ligand | 90
TLK1 (Homo sapiens, UniProt Q9UKI8) | – | 100
ACVR2A (Homo sapiens, UniProt P27037) | competition with immobilised ligand | 58
DAPK2 (Homo sapiens, UniProt Q9UIK4) | – | 4.9

Series 2
SMILES: CCN(c1nc(N)c(C(=O)N=C(N)N)nc1Cl)C(C)C
Read-out: β-arrestin recruitment
Action: agonist
Technique: PRESTO-Tango
Tested at: 10 µM
Baseline: untreated
target | fold over basal
CX3CR1 (Homo sapiens, UniProt P49238) | 1.12
Opsin-5 (OPN5, Homo sapiens, UniProt Q6U736) | 0.9
MRGPRX2 (Homo sapiens, UniProt Q96LB1) | 0.83
UTS2R (Homo sapiens, UniProt Q9UKP6) | 0.96 fold
CXCR4 (Homo sapiens, UniProt P61073) | 0.69
Probable G-protein coupled receptor 152 (GPR152, Homo sapiens, UniProt Q8TDT2) | 0.8

Series 3
Target: Diamine acetyltransferase 1 (Homo sapiens, UniProt P21673)
Action: inhibitor
Tested at: 10 µM
Baseline: control
Construct (P21673 1-171): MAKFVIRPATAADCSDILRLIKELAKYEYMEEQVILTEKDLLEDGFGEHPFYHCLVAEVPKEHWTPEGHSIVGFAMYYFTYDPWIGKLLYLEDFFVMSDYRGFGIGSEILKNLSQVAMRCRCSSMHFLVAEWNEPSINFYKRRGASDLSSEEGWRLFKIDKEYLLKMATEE
SMILES | remaining activity
O=C1C[C@@H](c2ccc(O)cc2)Oc2cc(O[C@@H]3O[C@H](CO)[C@@H](O)[C@H](O)[C@H]3O)cc(O)c21 | 87.8%
NCc1ccc(O)cc1 | 107%
O=C(O)CCc1ccccc1 | 84.9%
CC1=C[C@H](O)CC(C)(C)[C@H]1/C=C/C(C)=C/C=C/C(C)=C/C=C/C=C(C)/C=C/C=C(C)/C=C/C1=C(C)C[C@@H](O)CC1(C)C | 96.9%
CCCCCCC/C=C/C(=O)CCc1ccc(O)c(OC)c1 | 109%
CCOC(=O)CC(C)O (stereo not drawn) | 81%

Series 4
SMILES: C[C@H](c1ccc(F)cc1)N(Cc1cccc(C(=O)O)c1)C(=O)c1cnc2ccccc2c1
Technique: competition with immobilised ligand
Tested at: 1 µM
target | read-out | remaining binding
FLT3 (Homo sapiens, UniProt P36888, D835Y) | cell-free assay | 100%
ACVR2B (Homo sapiens, UniProt Q13705) | binding | 100%
PRKX (Homo sapiens, UniProt P51817) | cell-free assay | 100%
PAK1 (Homo sapiens, UniProt Q13153) | cell-free assay | 100%
LYN (Homo sapiens, UniProt P07948) | cell-free assay | 100%

Series 5
SMILES: N#Cc1cnc2cnc(NCc3cccnc3)cc2c1Nc1ccc(F)c(Cl)c1
Read-out: enzyme activity
Action: inhibitor
Tested at: 0.5 µM
Baseline: control
target | remaining activity [%]
IKBKE (Homo sapiens, UniProt Q14164) | 90.6
STK39 (Homo sapiens, UniProt Q9UEW8) | 78.6
MAPK9 (Homo sapiens, UniProt P45984) | 100
TGFBR1 (Homo sapiens, UniProt P36897) | 99.6
IKBKB (Homo sapiens, UniProt O14920) | 103
PRKCA (Homo sapiens, UniProt P17252) | 89.7
CAMKK2 (Homo sapiens, UniProt Q96RR4) | 90.1
CHEK2 (Homo sapiens, UniProt O96017) | 90.5
Tyrosine-protein kinase Lyn, isoform B (LYN, Homo sapiens, UniProt P07948) | 94.1
DAPK2 (Homo sapiens, UniProt Q9UIK4) | 108
Cyclin-dependent kinase 4, with cyclin D1 (CDK4, Homo sapiens, UniProt P11802) | 97.6
STK10 (Homo sapiens, UniProt O94804) | 52.8
cGMP-dependent protein kinase 1, isoform beta (PRKG1, Homo sapiens, UniProt Q13976) | 87.2
CAMK2D (Homo sapiens, UniProt Q13557) | 103
GRK3 (Homo sapiens, UniProt P35626) | 100
DAPK1 (Homo sapiens, UniProt P53355) | 102
Cyclin-dependent kinase 5, with p25 (CDK5, Homo sapiens, UniProt Q00535) | 78.3
MAP3K3 (Homo sapiens, UniProt Q99759) | 75
NEK2 (Homo sapiens, UniProt P51955) | 75.2
PRKACA (Homo sapiens, UniProt P17612) | 92.2
OXSR1 (Homo sapiens, UniProt O95747) | 87.7
TGFBR2 (Homo sapiens, UniProt P37173) | 118
Protein kinase C beta type, isoform beta-I (PRKCB, Homo sapiens, UniProt P05771) | 104
STK11 (Homo sapiens, UniProt Q15831) | 91.1

Series 6
Compound: C[C@@H]1CN(c2ccc(-c3cc(C(=O)NCCOCCOCCOCCOCCOCCOCCOCCOCCOCCNC(=O)/C=C/c4[nH]cc(C(=O)N[C@@H](CC(N)=O)c5ccc(F)c(Cl)c5)c4-c4ccc(Cl)cc4F)ccc3F)cc2NC(=O)c2c[nH]c(=O)cc2C(F)(F)F)C[C@H](C)N1C
Action: degrader
Time: 24 h
WDR5/DCAF1: WDR5/DCAF1 (Homo sapiens, UniProt P61964+Q9Y4B6)
WDR5: WD repeat-containing protein 5 (WDR5, Homo sapiens, UniProt P61964)
target | technique | measured | tested at | baseline | remaining protein level
WDR5/DCAF1 | HiBiT luminescence | – | 2 nM | – | 103% and 112% and 95.3% and 88.5%
WDR5/DCAF1 | HiBiT luminescence | – | 1510 nM | – | 27.9% and 24.9% and 24.2% and 28.1%
WDR5 | Jess capillary immunoassay | WDR5 over vinculin | 11 nM | DMSO | 87.5% and 89.5% and 91.9%
WDR5/DCAF1 | HiBiT luminescence | – | 5.15 nM | – | 101% and 82.8% and 113% and 92.8%
WDR5/DCAF1 | HiBiT luminescence | – | 34.2 nM | – | 54.8% and 67.7% and 77.4% and 63.5%
WDR5/DCAF1 | HiBiT luminescence | – | 88.1 nM | – | 50.6% and 44.7% and 46.7% and 51.4%
WDR5 | Jess capillary immunoassay | WDR5 over vinculin | 4270 nM | DMSO | 49% and 52.5% and 52.1%
WDR5 | Jess capillary immunoassay | WDR5 over vinculin | 331 nM | DMSO | 59.6% and 54.1% and 63.6%

For quick reference, copied from above (series 4):
target | read-out | remaining binding
FLT3 (Homo sapiens, UniProt P36888, D835Y) | cell-free assay | 100%
ACVR2B (Homo sapiens, UniProt Q13705) | binding | 100%
PRKX (Homo sapiens, UniProt P51817) | cell-free assay | 100%
